# Results pooled from the literature.
# Compare with care: the assays were run in different laboratories. Several values in a cell are separate wells, animals, samples, runs or records.
# ABL1 T315I: Tyrosine-protein kinase ABL1 (ABL1, Homo sapiens, UniProt P00519, T315I)
# ABL1 Q252H: Tyrosine-protein kinase ABL1 (ABL1, Homo sapiens, UniProt P00519, Q252H)
Structure (SMILES),target,test,setting,scale,measurement,result
[2H]c1cc(C)c(NC(=O)c2cnc(Nc3cc(N4CCC(O)CC4)nc(C)n3)s2)c(Cl)c1,ABL1 T315I,,0.001 µM,,inhibition,< 50%
N[C@@H]1CCN(c2nccc(-c3cnn4ncccc34)n2)C1,ABL1 T315I,KINOMEscan,1 µM,,remaining binding,96%
O=C(NC1CCC1)c1ccc2nc(-c3cccc(NS(=O)(=O)NCCN4CCCCC4)c3)cn2c1,"Tyrosine-protein kinase ABL1 (ABL1, Homo sapiens, UniProt P00519, M351T)",enzyme activity,10 µM,,remaining activity,65%
CN1CCN(c2ccc(Nc3nccc(-c4ccccc4)n3)cc2C(F)(F)F)CC1,"Tyrosine-protein kinase ABL1 (ABL1, Homo sapiens, UniProt P00519, F317I)",,10 µM,,percent of control,87%
C=CC(=O)N1CCC(COCC(=O)N2CCN(c3nc(-c4cnc(N)nc4C(F)F)nc(N4CCOC[C@@H]4C)n3)CC2)CC1,"Tyrosine-protein kinase ABL1, phosphorylated (ABL1, Homo sapiens, UniProt P00519, F317L)",KINOMEscan,1 µM,,remaining binding,76%
CN(C)c1ncc(F)c(-c2cnn3ncccc23)n1,ABL1 Q252H,KINOMEscan,1 µM,baseline: control,remaining binding,100% and 66%
COc1cc(-c2cncc3c2CN(C)Cc2cc(N4CCNCC4)ccc2-3)cc(OC)c1OC,"Tyrosine-protein kinase ABL1 (ABL1, Homo sapiens, UniProt P00519, Y253F)",kinase activity,"1 µM, added: ATP 10 µM",baseline: DMSO control,remaining activity,77%
C1=C/COCc2cc(ccc2OCCN2CCCC2)Nc2nccc(n2)-c2cccc(c2)COC/1,ABL1 Q252H,,0.1 µM,baseline: DMSO control,remaining binding,18%
[2H]c1cc(C)c(NC(=O)c2cnc(Nc3cc(N4CCCCC4)nc(C)n3)s2)c(Cl)c1,"Tyrosine-protein kinase ABL1 (ABL1, Homo sapiens, UniProt P00519, E255K)",,0.01 µM,,inhibition,> 90%
COc1ccnn2ncc(-c3ccnc(N(C)C)n3)c12,ABL1 T315I,KINOMEscan,1 µM,baseline: control,remaining binding,67% and 100%

# For quick reference, copied from above:
Structure (SMILES),target,test,setting,scale,measurement,result
CN1CCN(c2ccc(Nc3nccc(-c4ccccc4)n3)cc2C(F)(F)F)CC1,"Tyrosine-protein kinase ABL1 (ABL1, Homo sapiens, UniProt P00519, F317I)",,10 µM,,percent of control,87%
